Experimental data pooled from the literature.
Protocols differ between the studies behind these lines. Values joined by “and” are separate records of one study, mostly repeats; a detail may differ.
Target: Ephrin type-A receptor 7 (EPHA7, Homo sapiens, UniProt Q15375)

SMILES	test	conditions	scale	quantity	value
COc1ccc(NC(=O)Nc2ccc3c(c2)C(=O)N(C(C)CO)CC(C)C(CN(C)Cc2ccc4c(c2)OCO4)O3)cc1 (stereo not drawn)	kinase activity, KinaseProfiler	0.03 µM, species human	relative to: control	remaining activity	92%
COc1c(Cl)cccc1Nc1c(-c2ccncc2C#C[C@@]2(C)CCCN2C(=O)/C=C/CN(C)C)[nH]c2c1C(=O)NCC2	cell-free assay, competition with immobilised ligand	3 µM		remaining binding	49%
C=CC(=O)N1CCCC(n2c(=O)c3ncccc3n(Cc3ccc(Oc4ccccc4)cc3)c2=O)C1 (stereo not drawn)	cell-free assay, competition with immobilised ligand	1 µM		remaining binding	88%
COc1cc(Nc2nc(C)cc(-c3cnn4nc(OC)ccc34)n2)cc(C(F)(F)F)c1	inhibitor	1 µM	relative to: control	remaining activity	77%
CNC1C[S+]2CC[S+]3CC[S+](C1)[Ru-4]321([N]=C=S)[n]2c3ccc(OC)cc3c3c4c(c5cc(F)c[n+]1c5c32)C(=O)NC4=O (stereo not drawn)	KinomeScan	0.1 µM	relative to: untreated	remaining binding	99%
COCC12C(=O)NC3C4(C(OC)CC1O)C1CC5(O)C(OC)C(O)C(OC(C)=O)(C1C5OC(=O)c1ccccc1)C3(O)C(OC)C24 (stereo not drawn)	kinase activity, inhibitor, ProQinase kinase profiling	25 µM	relative to: control	remaining activity	114% and 108%
CNC(=O)C[C@H](Cc1ccc(C#N)cc1)NC(=O)c1cc(-c2ccc(CN[C@H](C)c3ccc(C)cc3)o2)ccc1Cl	enzyme activity, inhibitor	1 µM		activity vs control	112%
C=CC(=O)N1CCc2ccc(-n3c(=O)ccc4cnc5ccc(-c6cnn(C)c6)cc5c43)cc21	KINOMEscan	1 µM	relative to: DMSO control	remaining binding	92%
CCN1CCN(Cc2ccc(C(=O)Nc3ccc(C)c(NCc4cnc5[nH]ccc5c4OC)c3)cc2C(F)(F)F)CC1	binding, competition with immobilised ligand	1 µM		remaining binding	100%
NC(=O)[C@@H](O)C[C@H]1CCc2sc3ncnc(O[C@H]4CC[C@H](N5CCOCC5)CC4)c3c21	enzyme activity, inhibitor	10 µM		inhibition	9%
O=C(Cc1ccc(OCc2ccccc2)cc1)NC1(C(=O)O)CCN(C(=O)c2ccc(-c3cccc(Cl)c3)cc2)CC1	enzyme activity, inhibitor	10 µM		activity vs control	90%
CN1CC[C@@H](COc2cnc(C#N)cc2-c2ccn3nc(NC(=O)C4CC4)cc3c2)C1	enzyme activity, inhibitor	1 µM		inhibition	-6%
